Published values of several laboratories.
Numbered parts are unrelated; each lists some results of a single study. Positions count from the first letter of the parent shown.

Block 1 — method: competition protein-binding microarray; form: double-stranded DNA, one strand shown; medium: in vitro; concentration: 2 µM; with: Pho4 competitor, 0.05 µM; direction: higher = stronger binding; quantity: fluorescence intensity; constant ends, left off below: … GTCTTGATTCGCTTGACGCTGCTG
Target: Centromere-binding protein 1, full length, His-tagged (CBF1, Saccharomyces cerevisiae, UniProt P17106, residues 1-351)
Chain of UniProt P17106 (whole entry, looked up): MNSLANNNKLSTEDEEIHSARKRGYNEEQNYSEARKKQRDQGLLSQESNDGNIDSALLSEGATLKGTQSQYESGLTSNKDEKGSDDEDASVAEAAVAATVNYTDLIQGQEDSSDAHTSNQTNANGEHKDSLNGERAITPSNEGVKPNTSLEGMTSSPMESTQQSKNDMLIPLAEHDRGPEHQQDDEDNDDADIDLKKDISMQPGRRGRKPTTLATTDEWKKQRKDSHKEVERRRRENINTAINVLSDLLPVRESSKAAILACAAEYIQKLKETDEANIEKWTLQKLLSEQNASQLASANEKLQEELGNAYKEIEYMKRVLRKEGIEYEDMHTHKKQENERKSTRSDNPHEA
Notes: whole 60-bp probe, lowest competitor level
TTCATCGAATGCTTGCACATGCCAATGCACAGACAA: 96 a.u.
GCATTTGTTGGCCATCACGTGAGCCGGGATCTTAAG: 4840 a.u.
CTTTCCCGATCTTGCCGTGTGGGTGTAGCACATTTG: 80.9 a.u.
CAGTCACCGTTTGGTAGATAACGACCTAAATCACCC: 75.1 a.u.
AAGGAAACTATAAAGCACGCAATTCCCTATTTGGTT: 84.3 a.u.
CATGCCATAAGCCATCACCTGGCCAGTTGGCGTATG: 86.7 a.u.
AAATTACTAAGTTTTCACGTGTTTTACCCCGTATGA: 1280 a.u.
AAATTACTAAGTTGTACTGTGGGTGACGCCGTATGA: 76.9 a.u.
TAATATTTGTAAAAGCACGTGATGGTGCCTTTTTCT: 5530 a.u.
AAAGCGGTAATTTGTTCGGTGGGTGCAGATATCTAT: 63.6 a.u.

Block 2 — method: RNA Bind-n-Seq; form: RNA; medium: in vitro; concentration: 1 µM; notes: whole 134-nt RNA, ends assumed; with: 150 mM KCl; baseline: input library; direction: higher = stronger binding; quantity: log2 enrichment
Target: Ras GTPase-activating protein-binding protein 1, RRM domain (G3BP1, Homo sapiens, UniProt Q13283)
Chain of UniProt Q13283 (whole entry, looked up): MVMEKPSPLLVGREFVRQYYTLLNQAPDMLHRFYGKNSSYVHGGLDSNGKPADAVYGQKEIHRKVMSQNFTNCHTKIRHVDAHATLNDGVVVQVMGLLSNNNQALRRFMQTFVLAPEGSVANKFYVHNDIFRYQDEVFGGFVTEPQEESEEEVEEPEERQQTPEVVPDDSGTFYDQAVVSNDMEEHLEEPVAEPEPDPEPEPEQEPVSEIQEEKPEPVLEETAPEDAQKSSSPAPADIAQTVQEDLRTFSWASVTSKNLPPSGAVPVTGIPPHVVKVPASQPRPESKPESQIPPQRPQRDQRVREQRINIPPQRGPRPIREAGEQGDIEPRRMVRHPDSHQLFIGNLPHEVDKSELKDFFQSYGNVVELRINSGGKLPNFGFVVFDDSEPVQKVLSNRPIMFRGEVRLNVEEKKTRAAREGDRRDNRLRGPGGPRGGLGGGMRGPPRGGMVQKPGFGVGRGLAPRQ
Constant ends, left off below: GGGAGUUCUACAGUCCGACGAUC … UGGAAUUCUCGGGUGUCAAGG
CAAGUCCUGUGCUACACAUCGUAUGUACCGAAUCGGGUUUGGGUGGGUUUUUGGGAAAGUAUUAUGUUACGCCGUUCGGAUCUGCACUUC: 0.727
AAGUCCUGUGCUACACAUCGUAUGUACCGAAUCGGAAAAGGGAAAAGGGGAAAAGGGAAAGUAUUAUGUUACGCCGUUCGGAUCUGCACU: 0.11
CUCAAGUCCUGUGCUACACAUCGUAUGUACCGAAUCGGAAAGGUGGUUUUUGGAAAGUAUUAUGUUACGCCGUUCGGAUCUGCACUUCCA: -0.198
UCCUGUGCUACACAUCGUAUGUACCGAAUCGGGGAGGGGAAAAAAAGGGGAAAAAGGGGAAAGUAUUAUGUUACGCCGUUCGGAUCUGCA: 0.808
GUCCUGUGCUACACAUCGUAUGUACCGAAUCGGGGAAAAAGGAAAAAGGAAAAAGGGGAAAGUAUUAUGUUACGCCGUUCGGAUCUGCAC: 0.0447
CAAGUCCUGUGCUACACAUCGUAUGUACCGAAUCGGAAAAAAAGGAAAAAGGAGGAAAGUAUUAUGUUACGCCGUUCGGAUCUGCACUUC: -0.122
UGGCCCUGGUGGCAUGCGGGGAGGAAGAGGUGGCCUCAUGGAUCGUGGUGGUCCCGGUGGAAUGUUCAGAGGUGGCCGUUGUGGAGACAG: 1.86

Block 3 — target: CCNB3, cyclin fold, Cln2 fusion (human); method: yeast growth competition, sequencing; medium: yeast; notes: weak parent motif; baseline: not given; direction: higher = stronger binding; quantity: normalised enrichment score
Parent: MASTL docking peptide (human); PMIAKNLMCELDE
PMIAKNLMCELEE [D12E]: 0.114
PMIAKNLMCELGE [D12G]: 0.0107
PMIAKNLMCYLDE [E10Y]: 0.295
PMIAKNLACELDE [M8A]: -0.0891
PMIAMNLMCELDE [K5M]: 0.0375
PMIAGNLMCELDE [K5G]: -0.157
PMFAKNLMCELDE [I3F]: -0.0675
PMIAKQLMCELDE [N6Q]: 0.0437
PSIAKNLMCELDE [M2S]: 0.259

Single results of other studies
PhoQ, residues 284 288 289 292 302 303 STVVAA  fold induction (PhoP, residues 12 14 15 18 19 NFCKL (Escherichia coli, UniProt P23836); Sort-seq, refers to: YFP reporter; E. coli; PhoQ-PhoP variant library, with: 10 µM Mg2+; baseline: high Mg2+ state, higher = stronger signaling): 1.37

A few entries again (block 3):
PMIAKNLMCELGE [D12G]: 0.0107
PMIAKNLMCYLDE [E10Y]: 0.295
PMIAKNLACELDE [M8A]: -0.0891
